Measurements gathered from unrelated publications.
Lines come from different studies, so protocols differ.
Target: Platelet-derived growth factor receptor beta (PDGFRB, Homo sapiens, UniProt P09619)
Chain of UniProt P09619 (whole entry, looked up): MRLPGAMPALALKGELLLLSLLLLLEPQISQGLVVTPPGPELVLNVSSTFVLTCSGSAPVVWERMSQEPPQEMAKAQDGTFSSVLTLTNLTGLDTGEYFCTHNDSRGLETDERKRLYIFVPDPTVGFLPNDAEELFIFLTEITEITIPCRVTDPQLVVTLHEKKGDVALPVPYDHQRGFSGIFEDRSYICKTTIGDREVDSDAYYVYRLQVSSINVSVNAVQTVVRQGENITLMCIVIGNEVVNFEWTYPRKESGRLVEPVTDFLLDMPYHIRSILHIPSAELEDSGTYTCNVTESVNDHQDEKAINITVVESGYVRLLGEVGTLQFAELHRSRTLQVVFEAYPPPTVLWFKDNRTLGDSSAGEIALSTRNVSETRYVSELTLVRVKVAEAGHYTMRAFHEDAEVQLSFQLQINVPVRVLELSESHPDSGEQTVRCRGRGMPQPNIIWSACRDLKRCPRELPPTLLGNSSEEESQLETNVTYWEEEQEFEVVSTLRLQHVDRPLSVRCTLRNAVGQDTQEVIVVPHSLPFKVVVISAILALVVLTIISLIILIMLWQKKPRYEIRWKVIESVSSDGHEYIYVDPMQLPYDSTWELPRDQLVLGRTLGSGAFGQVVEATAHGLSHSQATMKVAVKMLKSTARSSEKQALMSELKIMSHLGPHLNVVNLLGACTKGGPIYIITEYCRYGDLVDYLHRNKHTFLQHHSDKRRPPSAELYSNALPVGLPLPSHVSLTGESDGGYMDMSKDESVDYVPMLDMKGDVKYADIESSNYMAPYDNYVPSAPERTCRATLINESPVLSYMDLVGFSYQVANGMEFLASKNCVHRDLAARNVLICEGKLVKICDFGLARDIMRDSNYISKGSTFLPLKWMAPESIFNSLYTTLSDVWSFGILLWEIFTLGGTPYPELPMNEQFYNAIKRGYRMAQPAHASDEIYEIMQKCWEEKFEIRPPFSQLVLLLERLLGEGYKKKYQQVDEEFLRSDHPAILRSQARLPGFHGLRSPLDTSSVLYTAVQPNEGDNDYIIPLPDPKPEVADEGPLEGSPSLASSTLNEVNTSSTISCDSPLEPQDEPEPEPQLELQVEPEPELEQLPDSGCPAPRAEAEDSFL

COc1cc(-c2cncc3c2CN(C)Cc2cc(N4CCNCC4)ccc2-3)cc(OC)c1OC — remaining activity (enzyme activity, inhibitor; 1 µM): 88%
CCCCC(=O)Nc1ccc(-c2ccc3ncn(CCC)c(=O)c3c2)cn1 — remaining binding (binding, competition with immobilised ligand; 0.5 µM): 100%
Cc1cc([C@@H](C)Nc2ccccc2C(=O)O)c2nc(N3CCC(F)(F)CC3)c(C#N)c(=O)n2c1 — remaining binding (binding, competition with immobilised ligand; 10 µM): 100%
CN1CC(Oc2cnc(C#N)cc2-c2ccn3nc(NC(=O)C4CC4)cc3c2)C1 — inhibition (enzyme activity, inhibitor; 1 µM): 10%
C=CC(=O)N1CCC(COCC(=O)N2CCN(c3nc(-c4cnc(N)nc4C(F)F)nc(N4CCOC[C@@H]4C)n3)CC2)CC1 — remaining binding (binding, competition with immobilised ligand; 1 µM): 100%
Cc1cc(NC(=O)c2cccc(NC(=O)/C=C/CN(C)C)c2)ccc1Nc1nccc(-c2cccnc2)n1 — remaining binding (binding, competition with immobilised ligand; 1 µM): 30%
FC(F)(F)Oc1cccc(-c2cnc3ccc(-c4ccncc4)nn23)c1 — remaining binding (cell-free assay, competition with immobilised ligand; 5 µM): 11%
CNc1ncc2c(/C=C/C(=O)N3CCC(OC)CC3)nn(Cc3cccc(C(F)(F)F)c3)c2n1 — remaining activity (enzyme activity, inhibitor, radiometric; 1 µM): 99%

A few entries again:
C=CC(=O)N1CCC(COCC(=O)N2CCN(c3nc(-c4cnc(N)nc4C(F)F)nc(N4CCOC[C@@H]4C)n3)CC2)CC1 — remaining binding (binding, competition with immobilised ligand; 1 µM): 100%
